Results pooled from the literature.
Numbered parts are unrelated; each lists some results of a single study.

Study 1
Target: Interferon regulatory factor 5, full length, phosphomimetic (IRF5, Homo sapiens, UniProt Q13568-2, residues 1-514, K96S/S451D/S453D/S456D/S462D)
Technique: protein-binding microarray
Molecule type: double-stranded DNA, one strand shown
Medium: in vitro
Tested at: 250 nM
Notes: 60-bp whole probe
Added: salmon DNA 0.4 mg/ml
Baseline: random background probes
Reading: higher = stronger binding
Shared flanks, not repeated: GCCTAGCAC … GTCTTGATTCGCTTGACGCTGCTG
For `TATTTTATATGCTATGTACTGGTGCTA`, the log fluorescence was 0.613 z-score.
`GACGGTTTCCTACTCCTGACGTGCTAG` gave a log fluorescence of 0.514 z-score.
With `TCAGAACTCAACTGTCTGACTGTGCTA` the log fluorescence was 0.285 z-score.
`TTAGGTTTCGGTCCCGGTTAGTGCTAG` has a log fluorescence of 9.93 z-score.
The log fluorescence of `GATGGACTGCTTCTCCTGACGTGCTAG` is reported as -0.0365 z-score.
For `GACGGTCTGGGGTTTCGGGACGTGCTA`, the log fluorescence was 0.895 z-score.
`GACGATATCGGGATTGGAGACGTGCTA` has a log fluorescence of 1.1 z-score.
The log fluorescence of `GACGGACTGAGGTATCGGGACGTGCTA` is reported as -0.063 z-score.
`GACGGTATCGACTTACGGGACGTGCTA` has a log fluorescence of 2.64 z-score.
`TCATCTATCTCTGTTTTACTGTGCTAG` gave a log fluorescence of 1.04 z-score.
For `GACGGACTGGACTATCCGGACGTGCTA`, the log fluorescence was -0.405 z-score.
`TTAGGTTTCCTAATGCTTTAGTGCTAG` has a log fluorescence of 0.737 z-score.
For `CACGATTTCAGTATCGAGACGTGCTAG`, the log fluorescence was 3.31 z-score.
`CAGGTTTTGCTAAGTCAACTGGTGCTA` gave a log fluorescence of 0.315 z-score.
With `GAGCAGAGGCTGATGTATGTGTGCTAG` the log fluorescence was -0.835 z-score.
With `GACGGTCCCGGTATCGGGACGTGCTAG` the log fluorescence was 0.523 z-score.
For `CTTGCTTTCCTACTGAAATAGTGCTAG`, the log fluorescence was 1.06 z-score.
For `CACGAACTGAGACTGGAGACGTGCTAG`, the log fluorescence was -0.63 z-score.
`TCACTTTTATCCCTGACACTGTGCTAG` has a log fluorescence of 0.73 z-score.
The log fluorescence of `GACGGTCTCTGTATCGGGACGTGCTAG` is reported as 0.52 z-score.
`TTAGGTCGCCTACTGCTTTAGTGCTAG` gave a log fluorescence of -0.507 z-score.
`AGTATGTTCCCTATTTAAGGGTGCTAG` has a log fluorescence of 0.307 z-score.
The log fluorescence of `GACGATCTCTGTATCGAGACGTGCTAG` is reported as 1.03 z-score.
`TCACTGCTCCTCTTTTTTACTGTGCTA` gave a log fluorescence of 0.389 z-score.
`TTAGGTAGCGGACTGGGTTAGTGCTAG` has a log fluorescence of -0.524 z-score.

Study 2
Target: Sal-like protein 4, full length isoform B (SALL4, Homo sapiens, UniProt Q9UJQ4-2, residues 1-616)
Technique: universal PBM
Molecule type: double-stranded DNA, one strand shown
Medium: in vitro
Tested at: not given
Notes: 8-mer, flanks averaged, mean of replicates
Reading: higher = stronger binding
Target sequence (chain): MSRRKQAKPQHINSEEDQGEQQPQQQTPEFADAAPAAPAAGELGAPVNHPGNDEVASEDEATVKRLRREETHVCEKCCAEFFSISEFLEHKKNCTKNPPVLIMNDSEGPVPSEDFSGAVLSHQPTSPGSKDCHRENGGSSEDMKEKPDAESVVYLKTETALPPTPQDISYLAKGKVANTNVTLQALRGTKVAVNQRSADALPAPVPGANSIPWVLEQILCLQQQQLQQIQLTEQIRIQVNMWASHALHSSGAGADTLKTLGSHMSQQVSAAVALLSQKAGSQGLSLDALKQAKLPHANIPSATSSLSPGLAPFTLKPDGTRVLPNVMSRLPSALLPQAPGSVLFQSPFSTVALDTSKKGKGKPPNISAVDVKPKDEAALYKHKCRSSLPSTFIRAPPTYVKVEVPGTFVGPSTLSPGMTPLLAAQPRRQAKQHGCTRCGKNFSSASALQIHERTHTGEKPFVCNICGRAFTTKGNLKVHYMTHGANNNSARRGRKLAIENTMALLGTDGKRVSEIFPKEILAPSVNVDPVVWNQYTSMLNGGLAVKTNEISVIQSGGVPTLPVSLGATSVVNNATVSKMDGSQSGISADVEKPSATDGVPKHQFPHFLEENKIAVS
With `GACGTATA` the E-score was 0.193.
`ACATTAAT` gave an E-score of 0.322.
With `CATAGTAG` the E-score was 0.135.
For `CTATTCTC`, the E-score was -0.0678.
The E-score of `AATGATTG` is reported as 0.182.
With `CGACGCAG` the E-score was -0.298.
`TAGGCAGA` gave an E-score of 0.143.
The E-score of `CTGGTTAA` is reported as 0.0923.
With `CACGAAAA` the E-score was 0.157.
With `GTCGTGTA` the E-score was 0.0869.
The E-score of `AAATTTGT` is reported as 0.321.
`GCGATGCA` has an E-score of -0.231.
The E-score of `ACAGATAA` is reported as 0.15.
`CATAAACC` has an E-score of 0.222.
The E-score of `CTAGTGCC` is reported as -0.167.
With `GATGTGTA` the E-score was 0.132.
With `AAGTTCCC` the E-score was -0.241.
With `AAAGACCG` the E-score was 0.00018.
With `TTCATGAA` the E-score was 0.238.
`ATACCCCG` has an E-score of -0.123.
With `ATTCCGTA` the E-score was 0.0901.
The E-score of `ACAACCGC` is reported as -0.121.
With `ACCTTCCC` the E-score was -0.0555.
With `TGGACCCA` the E-score was 0.00353.
With `CAAAATCC` the E-score was -0.0522.

Study 3
Target: Centromere-binding protein 1, full length, N-terminal tag (CBF1, Saccharomyces cerevisiae, UniProt P17106, residues 1-351)
UniProt P17106, sequence (whole entry, looked up): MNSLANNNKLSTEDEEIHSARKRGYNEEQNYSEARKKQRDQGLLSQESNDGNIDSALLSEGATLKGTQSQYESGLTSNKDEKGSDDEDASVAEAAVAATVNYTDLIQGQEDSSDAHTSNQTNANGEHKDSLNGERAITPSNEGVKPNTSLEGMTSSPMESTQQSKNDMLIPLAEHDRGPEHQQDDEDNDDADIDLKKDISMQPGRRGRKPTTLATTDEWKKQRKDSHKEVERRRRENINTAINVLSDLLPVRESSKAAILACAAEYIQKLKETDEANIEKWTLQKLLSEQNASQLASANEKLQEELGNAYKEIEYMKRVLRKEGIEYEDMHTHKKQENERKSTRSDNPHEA
Technique: protein-binding microarray
Molecule type: double-stranded DNA, one strand shown
Medium: in vitro
Tested at: 0.8 µM
Notes: whole 60-bp probe, no competitor
Reading: higher = stronger binding
Shared flanks, not repeated: … GTCTTGATTCGCTTGACGCTGCTG
`GAAATTAATTAGTCTCACATGGCTGACATAACGTAG` has a fluorescence intensity of 946 a.u.
For `GAACTCAGTCTAGTGCACGTGAGATTACACTGCTAG`, the fluorescence intensity was 3630 a.u.
`TGTACGAAGCTATGGGAGATCACTATAGTAGTTAGG` has a fluorescence intensity of 515 a.u.
With `GAAATTATCAAGTCGTGCGTTCCACCCCCATTATAG` the fluorescence intensity was 549 a.u.
The fluorescence intensity of `GAAAAAAAATTACGTGACGCGACGCGTTTGTTTTAG` is reported as 634 a.u.
With `CTAAAAATGCATTGTCACACGCTGTAGTGCTCGTTC` the fluorescence intensity was 560 a.u.
The fluorescence intensity of `TGTACGAAGCTATGTTTCGTGCTTATAGTAGTTAGG` is reported as 502 a.u.
For `CTAGCGGGGAGACGTGTTGTTTTTCCACGGCTTTTC`, the fluorescence intensity was 523 a.u.
With `CTAATTCGGCTCGATCATGAGGATTTCGGGCCGTTC` the fluorescence intensity was 531 a.u.
`CTACGCATTTGGCATGGTGTGGTGATGTCTCTTTTC` gave a fluorescence intensity of 587 a.u.
`GAATTTATTAGAAATGGGGTCACAATCATCCGATAG` gave a fluorescence intensity of 579 a.u.
`CTAGTTTAAGTCTACATCAGGATCACCTGCAATTTC` gave a fluorescence intensity of 1130 a.u.
The fluorescence intensity of `GAAAAGTTTAGCATTCACGTGTAACTGCAATGATAG` is reported as 3740 a.u.
With `CTACGTATGTGTTCGTACGTGCGGTCCGCAAGGTTC` the fluorescence intensity was 491 a.u.
With `CTACGAACCATTGATCACGTGCAACGACAAACCTTC` the fluorescence intensity was 18000 a.u.
With `GAAACCATAGCAACTCATGTCACTATTAATTACTAG` the fluorescence intensity was 508 a.u.
`CTATAAAATGGTACCCATCTGATGCAGGAATTCTTC` has a fluorescence intensity of 552 a.u.
`TGTACGAAGCTATATCTGGTGGTTATAGTAGTTAGG` has a fluorescence intensity of 509 a.u.
The fluorescence intensity of `GAAGTATGGAATCATCAACTGATATGGCCGTCATAG` is reported as 531 a.u.
For `CTAGAAGAAGGAAAAAAGGTGGCGTCGAAGACTTTC`, the fluorescence intensity was 494 a.u.
The fluorescence intensity of `GAAATACTTGTTGACGACATCACGGTCTCTGTTTAG` is reported as 593 a.u.
`CTAATCCTTTTTTAGCACGTGAACGGTAATAACTTC` gave a fluorescence intensity of 11000 a.u.
The fluorescence intensity of `GAATGATATGATAGCGACATCACTGCCGTGCAATAG` is reported as 531 a.u.

Study 4
Target: Ras GTPase-activating protein-binding protein 1, full length (G3BP1, Homo sapiens, UniProt Q13283)
UniProt Q13283, sequence (whole entry, looked up): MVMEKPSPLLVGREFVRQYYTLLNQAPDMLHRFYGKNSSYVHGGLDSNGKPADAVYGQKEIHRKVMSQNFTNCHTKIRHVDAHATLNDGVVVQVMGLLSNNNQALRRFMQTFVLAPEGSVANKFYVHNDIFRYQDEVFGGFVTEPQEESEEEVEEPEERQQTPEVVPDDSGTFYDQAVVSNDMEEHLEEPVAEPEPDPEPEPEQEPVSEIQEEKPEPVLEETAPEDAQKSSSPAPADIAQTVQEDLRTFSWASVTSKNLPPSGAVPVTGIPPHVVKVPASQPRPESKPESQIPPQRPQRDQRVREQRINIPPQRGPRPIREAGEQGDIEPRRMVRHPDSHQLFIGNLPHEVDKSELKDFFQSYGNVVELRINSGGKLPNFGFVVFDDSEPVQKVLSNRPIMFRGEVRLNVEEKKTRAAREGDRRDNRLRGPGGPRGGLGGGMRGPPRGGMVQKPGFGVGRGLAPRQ
Technique: RNA Bind-n-Seq
Molecule type: RNA
Medium: in vitro
Tested at: 200 nM
Notes: whole 134-nt RNA, ends assumed
Added: 150 mM LiCl
Baseline: input library
Reading: higher = stronger binding
Library: 7-deaza-guanosine replaces G
Shared flanks, not repeated: GGGAGUUCUACAGUCCGACGAUC … UGGAAUUCUCGGGUGUCAAGG
For `CCUGUGCUACACAUCGUAUGUACCGAAUCGGGAAAAAAGGGGAAAAAAGGGAAAAAAGGGGAAAGUAUUAUGUUACGCCGUUCGGAUCUG`, the log2 enrichment was 0.519.
The log2 enrichment of `UCAAGUCCUGUGCUACACAUCGUAUGUACCGAAUCGGGGCCGGGCCGGGCCGGGGAAAGUAUUAUGUUACGCCGUUCGGAUCUGCACUUC` is reported as 0.777.
For `UGGCCCUGGUGGCAUGCGGGGAGGAAGAGGUGGCCUCAUGGAUCGUGGUGGUCCCGGUGGAAGGUUCAGAGGUGGCCGUGGUGGAGACAG`, the log2 enrichment was 0.377.
For `AGUCCUGUGCUACACAUCGUAUGUACCGAAUCGGGUUUUUGGUUUUUGGGUUUUUGGAAAGUAUUAUGUUACGCCGUUCGGAUCUGCACU`, the log2 enrichment was -0.94.
`UGGGAGGUGGGUUUUGUUUAUUUUUUUAGCUCAUUUCCAGGGGUGGGAAUUUUUUUUUAAUAUGUGUCAUGAAUAAAGUUGUUUUUGAAA` gave a log2 enrichment of -1.5.
`GCAGGAAGUAAAAACAAAUGGAAAUGCUUCGGAUAGUGGCAGGGGUGCGGGUUGCUAAGGAAAGGGUGGGAUGGGAGUGGGUAAAGAGUU` gave a log2 enrichment of 0.0916.
`AAGUCCUGUGCUACACAUCGUAUGUACCGAAUCAAACCCAAACCCAAAUUUUUAAAAAAGUAUUAUGUUACGCCGUUCGGAUCUGCACUU` gave a log2 enrichment of 1.02.
`UCCUGUGCUACACAUCGUAUGUACCGAAUCGGGGCCCCCGGGGCCCCCGGGGCCCCCGGGAAAGUAUUAUGUUACGCCGUUCGGAUCUGC` gave a log2 enrichment of -0.0682.
With `CCUCAAGUCCUGUGCUACACAUCGUAUGUACCGAAUCGGGGCGGGCGGGCGGGAAAGUAUUAUGUUACGCCGUUCGGAUCUGCACUUCCA` the log2 enrichment was -0.528.
For `UGGCCCUGGUGGCAUGCGGGGAGGAAGCGGUGGCCUCAUGGAUCGUGGUGGUCCCGGUGGAAUGUUCAGAGGUGGCCGUGGUGGAGACAG`, the log2 enrichment was 0.296.
`UUGUGGGAGGAUUUUGAGAUACUUAUUCUUUAUUUGAGCCAGUCUUGCAAGGUUAACUUCUCACUGGGCCUAGUGUGGUGCCCAGGUUUU` gave a log2 enrichment of -2.02.
